Measured values of several laboratories.
Numbered parts are unrelated; each lists some results of a single study. Positions count from the first letter of the parent shown.

Sample 1
Target: Fragile X messenger ribonucleoprotein 1, C-terminal low-complexity region (Fmr1, Mus musculus, UniProt P35922)
Method: RNA Bind-n-Seq
Form: RNA
Sample: in vitro
Tested at: 200 nM
Setting: whole 134-nt RNA, ends assumed
Together with: 150 mM KCl
Reference: input library
Direction: higher = stronger binding
Strand	log2 enrichment
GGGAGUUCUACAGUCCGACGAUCGCAGGAAGUAAAAACAAAUGGAAAUGCUUCGGAUAGUGGCAGGGGUGGGGGUUGCUAAGGAAAGGGUGGGAUGGGAGUGGGUAAAGAGUCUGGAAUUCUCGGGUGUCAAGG	-0.305
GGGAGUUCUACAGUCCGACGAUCCAAGUCCUGUGCUACACAUCGUAUGUACCGAAUCGGCCCGGGGCCCGGGCCCGGGGAAAGUAUUAUGUUACGCCGUUCGGAUCUGCACUUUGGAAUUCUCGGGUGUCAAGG	-0.576
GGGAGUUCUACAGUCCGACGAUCUCAAGUCCUGUGCUACACAUCGUAUGUACCGAAUCGGGUUUGGUUUGGGGUUUGGAAAGUAUUAUGUUACGCCGUUCGGAUCUGCACUUCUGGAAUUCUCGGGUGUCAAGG	-0.314
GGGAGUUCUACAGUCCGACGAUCGUCCUGUGCUACACAUCGUAUGUACCGAAUCGGGAAAAAGGGAAAAAAAGGGAAAGGGAAAGUAUUAUGUUACGCCGUUCGGAUCUGCACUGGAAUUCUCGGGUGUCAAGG	-0.325
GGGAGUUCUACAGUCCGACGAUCUAACUUUAGAAGAGGAUCUGAUGGAUAUGGCAGUGGACGUGGAUUUGGGGAUGGCUAUAAUGGGUAUGGAGGAGGACCUGGAGGUGGCAAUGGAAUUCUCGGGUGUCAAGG	0.34
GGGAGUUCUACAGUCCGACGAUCCUGUGCUACACAUCGUAUGUACCGAAUCGGCCCCCCCGGGGCCCCCCCGGGCCCCCCCGGGAAAGUAUUAUGUUACGCCGUUCGGAUCUGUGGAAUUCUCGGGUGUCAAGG	-1.21
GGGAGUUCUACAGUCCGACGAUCUUAUCUGUGGACUUCACCCAAAAGGAGUGGCAGCUACUGGAUCCCUCUCAGAAGAAUUUAUACAAGGAUGUGAUGUUGGAGAACUAUAGCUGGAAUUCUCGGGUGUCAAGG	-0.599
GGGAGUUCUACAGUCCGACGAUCCAAGUCCUGUGCUACACAUCGUAUGUACCGAAUCGGGUUUGGGUUUUUGGGAGGGAAAGUAUUAUGUUACGCCGUUCGGAUCUGCACUUCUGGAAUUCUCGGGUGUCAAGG	1.09
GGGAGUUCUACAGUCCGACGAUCUCAAGUCCUGUGCUACACAUCGUAUGUACCGAAUCGGAAGGGGAAGGGAAGGGGAAAGUAUUAUGUUACGCCGUUCGGAUCUGCACUUCCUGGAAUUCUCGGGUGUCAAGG	0.96

Sample 2
Target: TAR DNA-binding protein 43, full length, His tag (TARDBP, Homo sapiens, UniProt Q13148, residues 1-414)
Method: RNA Bind-n-Seq
Form: RNA
Sample: in vitro
Tested at: 20 nM
Setting: 6-mer, flanks averaged, single round
Together with: 150 mM KCl
Reference: input library
Direction: higher = stronger binding
Strand	6-mer enrichment (R)
AGGCCA	0.909
GGCUCG	1.57
AAAAAG	0.777
GUCCCU	0.694
UCGCGU	0.786
CAGAUG	0.854
GACGAC	0.881
CCUUCA	0.588
GAUAAA	0.715
CCCUGA	0.665
GGCUAG	1.75

Sample 3
Target: ABI1, truncated, D143A, DHFR fusion (Arabidopsis thaliana)
Method: DHFR PCA, deep sequencing
Sample: yeast
Setting: methotrexate growth selection, single substitutions
Together with: (+)-ABA 58 µM
Reference: wild-type fitted maximum
Direction: higher = stronger binding
Parent: PYL1, truncated, DHFR fusion (Arabidopsis thaliana); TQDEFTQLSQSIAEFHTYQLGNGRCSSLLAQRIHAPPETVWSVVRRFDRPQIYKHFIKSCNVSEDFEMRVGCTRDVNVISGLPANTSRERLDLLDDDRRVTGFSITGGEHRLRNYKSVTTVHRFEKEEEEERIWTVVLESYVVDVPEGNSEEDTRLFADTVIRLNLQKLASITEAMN
Variant	relative binding score
H122I	11.4%
A84W	54.6%
G81H	17.3%
T160I	56.9%
G23Q	76.5%
Q167C	76.1%
E152W	74%
T119D	-1.97%
P37D	56.7%
T86M	73%
T73M	83.8%
E67H	79.1%
G71H	38%
A30R	85%
E174H	61.7%
N77H	99.7%
R163K	86.4%
L29C	72.9%

Single results of other studies
Organism: Saccharomyces cerevisiae
Effect on: binding
Method: competitive growth deep sequencing
Form: peptide
Strain: cyclin E1-Cln2 fusion strain
Tested at: concentration not given
Direction: direction not given
Sequence	setting	growth enrichment score
DWDTVERQEEEAPSWD	peptide tiling library	1.24
IFNKPECGRVQRAIFQ	peptide tiling library	0.631
GSPLAKAFTSTGL	peptide library 1	0.0156
PKNAKRNLSSEFAN	peptide tiling library	1.57

Some of these lines once more (sample 3):
Variant	relative binding score
N77H	99.7%
G23Q	76.5%
A84W	54.6%
